Experimental data pooled from the literature.
Lines come from different studies, so protocols differ. Values joined by “and” are separate records of one study, mostly repeats; a detail may differ.
TTK: Dual specificity protein kinase TTK (TTK, Homo sapiens, UniProt P33981)
TDP1: Tyrosyl-DNA phosphodiesterase 1 (TDP1, Homo sapiens, UniProt Q9NUW8)
Chain of UniProt Q9NUW8 (whole entry, looked up): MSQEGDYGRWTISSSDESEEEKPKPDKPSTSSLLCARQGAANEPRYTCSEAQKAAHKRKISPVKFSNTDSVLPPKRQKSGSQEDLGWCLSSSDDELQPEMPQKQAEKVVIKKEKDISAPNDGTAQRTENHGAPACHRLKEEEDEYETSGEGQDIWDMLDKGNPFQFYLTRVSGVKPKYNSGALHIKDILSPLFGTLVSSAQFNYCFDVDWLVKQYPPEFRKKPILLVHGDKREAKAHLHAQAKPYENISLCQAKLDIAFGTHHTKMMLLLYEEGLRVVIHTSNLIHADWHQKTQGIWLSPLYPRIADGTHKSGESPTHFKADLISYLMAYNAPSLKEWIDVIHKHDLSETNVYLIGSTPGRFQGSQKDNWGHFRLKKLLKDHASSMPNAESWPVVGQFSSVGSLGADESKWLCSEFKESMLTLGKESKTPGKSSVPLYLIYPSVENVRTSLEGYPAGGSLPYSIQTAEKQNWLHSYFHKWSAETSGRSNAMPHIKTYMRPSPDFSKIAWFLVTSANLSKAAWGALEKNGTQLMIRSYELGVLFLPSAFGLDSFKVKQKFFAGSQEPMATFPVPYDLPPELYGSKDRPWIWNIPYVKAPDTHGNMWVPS

Compound = CCN1CCN(Cc2ccc(C(=O)Nc3ccc(C)c(NCc4cnc5[nH]ccc5c4OC)c3)cc2C(F)(F)F)CC1; target = TTK; assay = binding, competition with immobilised ligand; conditions = 1 µM; endpoint = remaining binding; value = 78%
Compound = NC(=O)[C@@H](O)C[C@H]1CCc2sc3ncnc(O[C@H]4CC[C@H](N5CCOCC5)CC4)c3c21; target = TTK; assay = enzyme activity, inhibitor; conditions = 10 µM; endpoint = inhibition; value = 0%
Compound = Cc1ccc(C(=O)Nc2ccc(CN3CCN(C)CC3)c(C(F)(F)F)c2)cc1C#Cc1cnc2cccnn12; target = TTK; assay = target engagement, NanoBRET; test system = human cells; endpoint = upper asymptote; value = 520
Compound = C=CC(=O)Nc1cccc(-c2cnc3[nH]cc(C(=O)NC(C)(C)C)c3n2)c1; target = TTK; assay = enzyme activity, inhibitor; conditions = 0.1 µM; endpoint = inhibition; value = 0%
Compound = O=C(Cc1ccc(OCc2ccccc2)cc1)NC1(C(=O)O)CCN(C(=O)c2ccc(-c3cccc(Cl)c3)cc2)CC1; target = TTK; assay = enzyme activity, inhibitor; conditions = 10 µM; endpoint = activity vs control; value = 96%
Compound = Cc1cccc(O[C@H]2CCC[C@@H](C(C)CNCc3ccncc3)C2)c1 (relative stereo); target = TTK; assay = enzyme activity, inhibitor; conditions = 10 µM; endpoint = inhibition; value = -15%
Compound = CCn1cc(C(=O)O)c(=O)c2c(N)c(F)c(NC3CCCCC3)cc21; target = TTK; assay = kinase activity; conditions = 0.1 µM, with: ATP at Km; endpoint = inhibition; value = 18.5%
Compound = O=C(O)c1ccc(Nc2c(-c3ccc(CON=Cc4cccc(NC(=O)c5ccc(Cl)cc5)c4)cc3)nc3cc(-c4ccccc4)ccn23)cc1; target = TDP1; assay = enzyme activity, inhibitor; conditions = 100 µM, unpurified compound; endpoint = inhibition; value = 63.5%
Compound = COc1cc(Nc2nc(C)cc(-c3cnn4nc(OC)ccc34)n2)cc(C(F)(F)F)c1; target = TTK; assay = binding, competition with immobilised ligand; conditions = 1 µM; endpoint = remaining binding; value = 90%
Compound = C=CC(=O)N1Cc2nc(-c3cc(-c4cc(Cl)cnc4Cl)c(F)cc3F)n(-c3ccncn3)c2C1; target = TTK; assay = cell-free assay, inhibitor; conditions = 1 µM; endpoint = inhibition; value = -10.4%
Compound = Nc1ncc2c(n1)-c1c([nH]c3ccc(C4=CCOCC4)cc13)CCC2; target = TTK; assay = binding, competition with immobilised ligand; conditions = 1 µM; endpoint = remaining binding; value = 96%
Compound = O=C(O)c1ccc(Nc2c(-c3ccccc3)nc3ccc(CON=Cc4cc(-c5ccccc5)no4)cn23)cc1; target = TDP1; assay = enzyme activity, inhibitor; conditions = 100 µM, unpurified compound; endpoint = inhibition; value = 113%
Compound = CCN1CCN(Cc2ccc(NC(=O)c3ccc(C)c(NC(=O)c4cncc(-c5cnn(C)c5)c4)c3)cc2C(F)(F)F)CC1; target = TTK; assay = binding, competition with immobilised ligand; conditions = 1 µM; endpoint = remaining binding; value = 54%
Compound = Cc1ccc(-c2c(/C=C(\C#N)C(=O)NC(C)C)n(CCCO)c3ncnc(N)c23)cc1; target = TTK; assay = cell-free assay, competition with immobilised ligand; conditions = 1 µM; endpoint = remaining binding; value = 96%
Compound = COC(=O)[C@@]1(C)C=C(C(=O)Nc2cccc(C(=O)Nc3ccc(Nc4nccc(-c5cccnc5)n4)c(C)c3)c2)C(=O)CC1; target = TTK; assay = enzyme activity, inhibitor, radiometric; conditions = 1 µM; endpoint = remaining activity; value = 77%
Compound = CNC(=O)C1CCN(c2cc(C)c(F)cc2NC(=O)c2ccc(-c3cc(O)ccc3C)c(C)c2)CC1; target = TTK; assay = binding, competition with immobilised ligand; conditions = 1 µM; endpoint = remaining binding; value = 100%
Compound = Cc1cnc2nc1Nc1cccc(c1)COC/C=C/COCc1cc(ccc1OCCN1CCOCC1)N2; target = TTK; assay = binding, competition with immobilised ligand; conditions = 0.1 µM; endpoint = remaining binding; value = 66%
Compound = COCC12C(=O)NC3C4(C(OC)CC1O)C1CC5(O)C(OC)C(O)C(OC(C)=O)(C1C5OC(=O)c1ccccc1)C3(O)C(OC)C24 (stereo not drawn); target = TTK; assay = kinase activity, inhibitor, ProQinase kinase profiling; conditions = 25 µM; how to read = relative to: control; endpoint = remaining activity; value = 97% and 119%
